Experimental data of several laboratories.
Every numbered part comes from another study and shows a few of its results, in no order.

Series 1
Target: RING finger protein unkempt homolog, zinc fingers 1-6, SBP tag (UNK, Homo sapiens, UniProt Q9C0B0, residues 30-357)
UniProt Q9C0B0, sequence (30-357, looked up): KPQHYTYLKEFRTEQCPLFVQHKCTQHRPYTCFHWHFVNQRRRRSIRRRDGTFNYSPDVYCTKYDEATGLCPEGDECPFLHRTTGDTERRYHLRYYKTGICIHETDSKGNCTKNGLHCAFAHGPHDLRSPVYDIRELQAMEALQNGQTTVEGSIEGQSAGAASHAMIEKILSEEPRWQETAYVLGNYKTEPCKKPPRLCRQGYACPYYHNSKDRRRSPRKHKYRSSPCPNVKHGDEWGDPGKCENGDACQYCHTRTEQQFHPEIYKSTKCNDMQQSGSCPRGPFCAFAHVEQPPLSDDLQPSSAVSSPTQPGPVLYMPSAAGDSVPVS
Technique: RNA Bind-n-Seq
Form: RNA
Medium: in vitro
Concentration: 100 nM
Notes: RNA with constant flanks, vertebrate orthologous sites, ends assumed
Reference: input RNA pool
Reading: higher = stronger binding
All sequences stand within: GGGAGUUCUACAGUCCGACGAUC … CAACAGAGGAUUGAGCAUCA
`AAGUAGUUUUAAGCUUGUUUGCACAGUUCUUUUUUCCAUUGGAAAUGGAAUUCAUUGCCUUAGGUCUUUUAAAAUAGUGUUUUAUUGUUGGGGCUGGCUCUGUGCUUGCAAUCCAGUUUA` has a bound/input enrichment of 2.6 ratio.
With `CUGAAGCUUUGUGUUUGGCUGCACCUGCAUAAGCUGCUACAAAUAGAAUAAAGAAUUUCAUAGCCUGUAUCUAUCAUUAGAUGCAUGGAAAAUGGGCUUUGCACACAAUGGGUUUGGAGC` the bound/input enrichment was 1.77 ratio.
For `UUUCACUACUCUGGGAGCGUGACUGAGCAUGAAGCAGCUACCAGCGCUGUAGGGGGUCAAUAGUAUUUUUGCUGCCUCGGAGUCCCCAAAGCCUUCAAGUGGAAGUGGCAGUAGGUUAUU`, the bound/input enrichment was 0.663 ratio.
`UUUUAUUGAUCAGGUCUGUAAAUGUGCACUAAAACAAUCAGAGUUUAUUUAUGAACAGAGUAGUUUAUUUAAAGAGCAGGUCUUGUUCUCUUGGUACUGUGGUAUGCGCUCAUUCCUGUG` gave a bound/input enrichment of 0.43 ratio.
`AGUAGUUUUAAGCUUGUUUGCACAGUUCUUUUUUUCCAUUGGAAAUGGAAUCCAUUGCCUUAGGUCUUUUUAAAUAGUGUAUUAUUAUCUUUGGGGCUGGCUCUGUGCUUGAAAACCAGU` has a bound/input enrichment of 3.89 ratio.
`UGCUGUUAAUGCACUGUAUACCAGGAAUUGUCUGAACUUAGUGUAAUCUAGGAGAUUUUAUAGUUUUAUUUUAAUGAAGUAUGAAUUGAAACAAAGCUGUUAGGAGUAUGUAGUCUUCUA` has a bound/input enrichment of 0.944 ratio.
For `AAGUAUCCCCGUUUACUGUGUUGAGUUGGCACUGUACAGAAAUUAACAGCCAUAUUGGUCUAGAAAUGUUGAACUUAAGUUUUUUCCAUUUGUACAGGGGUAACGCACUGUAUUAAAUAU`, the bound/input enrichment was 0.349 ratio.
With `CCAAAAUUUUAACCAAGAAUCCGAAGGUAGAAAUACAGGGCCAUGGUUAUCUUCCUCACUUAGAAAUAGAUGCACACCUUUGUUCUCUAGAAGGAGGCGAGAGGGAAGAGAUGAAUCUUC` the bound/input enrichment was 0.729 ratio.
With `GUUGGGUCAUGACCCCUAUAGGUUAGGCCAUGAUGCUUACAGGUUAGGACAGGACCCCUACAGAUUAGGCCAUGAUCCCUACAGACUAACUCCUGAUCCCUACAGGAUGUCACCCAGACC` the bound/input enrichment was 0.462 ratio.
`UAUUCAGACUCUUAAUAAAUUGCUCAGACUUUCUAAAGUUCACUUUGGAGGAUCCGCCCAUAGGAUGGUGUUGCCAUAUUGUUUUGUUCUGUUUUUUAAACUUGUGUACUGUGUCCAGAG` gave a bound/input enrichment of 0.583 ratio.
`GUCCUUUUGCUCAGUCCCUGGCCAGGGUGGCAGGGCCAAGGUUUCACCAAGGAACUGCAUUUCAAAAAAAAUUUUUUUUAAUUGUGGUACAGGAAGCAACGUUGCUGAAACAGCCUCUGA` gave a bound/input enrichment of 0.663 ratio.

Series 2
Target: Prothrombin, mature alpha-thrombin (F2, Homo sapiens, UniProt P00734)
Technique: aptamer microarray, sandwich
Form: DNA with 2'F-ANA
Medium: in vitro
Concentration: 200 nM
Notes: whole 15-mer aptamer, many near background
Together with: Cy3 exosite-II aptamer, 400 nM
Reading: higher = stronger binding
Oligonucleotide: GGTTGGTGTGGTTGG
For `2'F-ANA at 4 5 8 9 10 11 12 13 15`, “mean fluorescence intensity” read 46.6 a.u.
Under “mean fluorescence intensity”, `2'F-ANA at 1 5 6 8 9 10 13` is recorded as 89 a.u.
`2'F-ANA at 4 15`: “mean fluorescence intensity” 393 a.u.
`2'F-ANA at 1 2 3 4 5 7 9 12 14`: “mean fluorescence intensity” 46.3 a.u.
Under “mean fluorescence intensity”, `2'F-ANA at 3 7 8 9 14` is recorded as 650 a.u.
`2'F-ANA at 6 10 12 15` — result for “mean fluorescence intensity”: 199 a.u.
For `2'F-ANA at 6 8 10 11 12 13`, “mean fluorescence intensity” read 158 a.u.
For `2'F-ANA at 1 2 3 5 6 7 8 11`, “mean fluorescence intensity” read 66.8 a.u.
`2'F-ANA at 1 2 6 7 8 13 14 15`: “mean fluorescence intensity” 57.4 a.u.
`2'F-ANA at 1 4 5 6 7 8 9 11 12 14` — result for “mean fluorescence intensity”: 46.2 a.u.
`2'F-ANA at 3 9 10 12 13`: “mean fluorescence intensity” 612 a.u.
For `2'F-ANA at 1 4 5 6 8 10 11 13 14 15`, “mean fluorescence intensity” read 58.1 a.u.
Under “mean fluorescence intensity”, `2'F-ANA at 1 4 8 9 13 15` is recorded as 86 a.u.
`2'F-ANA at 1 4 6 9 11 12 13 15`: “mean fluorescence intensity” 134 a.u.
For `2'F-ANA at 3 8 12 14 15`, “mean fluorescence intensity” read 783 a.u.
Under “mean fluorescence intensity”, `2'F-ANA at 1 3 4 5 6 9 10 12 13 15` is recorded as 53.8 a.u.
For `2'F-ANA at 1 4 8 10 12 15`, “mean fluorescence intensity” read 62.7 a.u.
Under “mean fluorescence intensity”, `2'F-ANA at 2 3 5 10 12 13 14` is recorded as 46.6 a.u.
`2'F-ANA at 2 3 4 11 13 14`: “mean fluorescence intensity” 257 a.u.
Under “mean fluorescence intensity”, `2'F-ANA at 2 4 6 7 9 10 12 14` is recorded as 79.9 a.u.
For `2'F-ANA at 1 3 4 5 7 8 9 10 13`, “mean fluorescence intensity” read 45.2 a.u.
`2'F-ANA at 2 6 7 8 11 12 15` — result for “mean fluorescence intensity”: 542 a.u.
`2'F-ANA at 4 9 10 11 12 15`: “mean fluorescence intensity” 92.1 a.u.
For `2'F-ANA at 3 8 9 12 14`, “mean fluorescence intensity” read 810 a.u.
`2'F-ANA at 2 4 7 11 13 14`: “mean fluorescence intensity” 105 a.u.

Series 3
Target: Histone acetyltransferase KAT6A, both winged helices, GST fusion (KAT6A, Homo sapiens, UniProt Q92794, residues 1-181)
Technique: protein binding microarray
Form: double-stranded DNA, one strand shown
Medium: in vitro
Concentration: not given
Notes: 8-mer, flanks averaged, mean of 2 arrays, mostly near background
Reference: not given
Reading: higher = stronger binding
Construct (chain): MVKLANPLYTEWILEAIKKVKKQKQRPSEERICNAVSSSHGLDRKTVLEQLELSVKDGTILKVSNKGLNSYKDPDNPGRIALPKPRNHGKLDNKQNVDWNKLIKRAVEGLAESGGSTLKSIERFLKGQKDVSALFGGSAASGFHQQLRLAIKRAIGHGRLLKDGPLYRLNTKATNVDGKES
The E-score of `CAGTACTA` is reported as -0.129.
For `AATCCAGG`, the E-score was -0.208.
With `CTGCGAGA` the E-score was -0.0262.
The E-score of `GGGCCATA` is reported as 0.0598.
`GCCCGATA` gave an E-score of 0.0479.
For `AGGCAGTC`, the E-score was -0.0706.
The E-score of `AGAATATC` is reported as -0.0946.
The E-score of `CAAAATAG` is reported as -0.189.
`GCCATGCC` has an E-score of 0.122.
With `GAACTCGA` the E-score was -0.208.
With `GACGGAGA` the E-score was 0.251.
`AGAGAAAT` gave an E-score of 0.0516.
The E-score of `ACCATTGG` is reported as -0.143.
For `AGCTCGAT`, the E-score was -0.157.
`ATATCTTC` gave an E-score of -0.12.
The E-score of `AGCTGCGG` is reported as 0.116.
`ACGATCGG` has an E-score of 0.178.
`CGGTAGCA` has an E-score of 0.0256.
For `ATGCATTC`, the E-score was -0.104.

Series 4
Target: Ras GTPase-activating protein-binding protein 1, C-terminal RGG region (G3BP1, Homo sapiens, UniProt Q13283)
UniProt Q13283, sequence (whole entry, looked up): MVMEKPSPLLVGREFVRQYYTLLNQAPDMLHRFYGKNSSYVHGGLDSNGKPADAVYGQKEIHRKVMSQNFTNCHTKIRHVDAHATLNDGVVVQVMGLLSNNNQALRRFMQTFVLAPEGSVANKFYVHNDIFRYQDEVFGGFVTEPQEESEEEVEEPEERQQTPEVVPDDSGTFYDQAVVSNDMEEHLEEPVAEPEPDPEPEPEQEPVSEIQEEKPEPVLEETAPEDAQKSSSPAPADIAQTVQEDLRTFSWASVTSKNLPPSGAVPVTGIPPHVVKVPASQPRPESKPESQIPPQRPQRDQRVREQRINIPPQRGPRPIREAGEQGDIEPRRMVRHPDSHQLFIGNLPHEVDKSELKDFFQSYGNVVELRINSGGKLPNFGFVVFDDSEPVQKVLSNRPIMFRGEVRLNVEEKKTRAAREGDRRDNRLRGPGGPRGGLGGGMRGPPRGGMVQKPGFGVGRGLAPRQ
Technique: RNA Bind-n-Seq
Form: RNA
Medium: in vitro
Concentration: 1 µM
Notes: whole 134-nt RNA, ends assumed
Together with: 150 mM KCl
Reference: input library
Reading: higher = stronger binding
All sequences stand within: GGGAGUUCUACAGUCCGACGAUC … UGGAAUUCUCGGGUGUCAAGG
`UGCCGAUUCGGAAGUCCUUGAGGAGCGUCAGAAGCGGCUUCCCUACGUCCCAGAGCCCUAUUACCCGGAAUCUGGAUGGGACCGCCUCCG` gave a log2 enrichment of -0.749.
`GUCCUGUGCUACACAUCGUAUGUACCGAAUCGGUUUUUGGGUUUUUGGGUUUUUGGGGAAAGUAUUAUGUUACGCCGUUCGGAUCUGCAC` gave a log2 enrichment of -0.666.
`CACAGACAACACGCACCCACACAGACACAGAGGGAAGGGGUUGGGAUGGGGACAGGGUGCACAGCAGGGCGGGGUAGGACCCCAGCCAAA` has a log2 enrichment of -0.409.
With `AAGUCCUGUGCUACACAUCGUAUGUACCGAAUCGGGUUUUUGGGUUUGGGUUUGGGAAAGUAUUAUGUUACGCCGUUCGGAUCUGCACUU` the log2 enrichment was 1.37.
The log2 enrichment of `AAGUCCUGUGCUACACAUCGUAUGUACCGAAUCGGGUGGGUUUUUUUGGGAAAGGGAAAGUAUUAUGUUACGCCGUUCGGAUCUGCACUU` is reported as -0.0703.
`CCUGUGCUACACAUCGUAUGUACCGAAUCGGGGAAAAAAAGGGGUGGGGAAAAAAAGGGGAAAGUAUUAUGUUACGCCGUUCGGAUCUGC` has a log2 enrichment of 0.194.
With `CUGUGCUACACAUCGUAUGUACCGAAUCGGGGAAAAAGGGGUUUUUGGGGAAAAAAAGGGGAAAGUAUUAUGUUACGCCGUUCGGAUCUG` the log2 enrichment was 0.194.
With `UCCUGUGCUACACAUCGUAUGUACCGAAUCGGGGAGGGGUUUUUUUGGGGUUUUUGGGGAAAGUAUUAUGUUACGCCGUUCGGAUCUGCA` the log2 enrichment was 1.36.
`UCCUGUGCUACACAUCGUAUGUACCGAAUCGGGGUGGGGUUUUUGGGGUUUUUUUGGGGAAAGUAUUAUGUUACGCCGUUCGGAUCUGCA` gave a log2 enrichment of 1.14.
For `AGUCCUGUGCUACACAUCGUAUGUACCGAAUCAAACCCCCCCAAAUUUAAAUUUAAAAAAGUAUUAUGUUACGCCGUUCGGAUCUGCACU`, the log2 enrichment was -0.68.
With `CUCAAGUCCUGUGCUACACAUCGUAUGUACCGAAUCGGGUGGGAGGGAAAGGGAAAGUAUUAUGUUACGCCGUUCGGAUCUGCACUUCCA` the log2 enrichment was 1.65.
For `UGUCAGUAUCAUACAUAACAGAGGAAUGCCUGAAGAAGCUGGACACAAAGCAGCAGACCAACACCCUGCUCAACCUGGUGUGGAGGGACU`, the log2 enrichment was -0.557.
`UCAAGUCCUGUGCUACACAUCGUAUGUACCGAAUCGGGAAAAAGGGAGGGAGGGAAAGUAUUAUGUUACGCCGUUCGGAUCUGCACUUCC` gave a log2 enrichment of 1.96.
For `CAAGUCCUGUGCUACACAUCGUAUGUACCGAAUCGGGUGGGUUUGGGUUUUUGGGAAAGUAUUAUGUUACGCCGUUCGGAUCUGCACUUC`, the log2 enrichment was 1.22.
